Results of several laboratories.
Numbered parts are unrelated; each lists some results of a single study. Substitutions count along the parent as printed.

Block 1 — technique: RNA Bind-n-Seq; molecule type: RNA; medium: in vitro; concentration: 365 nM; baseline: no-protein control; direction: higher = stronger binding
Target: RNA binding protein fox-1 homolog 2, RRM domain, GST-SBP tag (RBFOX2, Homo sapiens, UniProt O43251-10, residues 100-194)
Notes: natural RNA segment, single round, ends assumed
Constant ends, left off below: GGGAGUUCUACAGUCCGACGAUC … UGGAAUUCUCGGGUGCCAA
Target sequence (chain): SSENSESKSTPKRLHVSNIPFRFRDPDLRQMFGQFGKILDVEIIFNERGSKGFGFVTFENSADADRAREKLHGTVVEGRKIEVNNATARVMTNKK
| Sequence | RBNS enrichment (R) |
| --- | --- |
| UACACUUCCAUGUCACCACAGCGUGGAGCAUUAGAGAAAAGCCUGGAUAGACUUUUAGUUGAUAGAGAGCCAGUUGAAAUAUCAUCAAUAGAAUUUUAGUUUAGGGAAAA | 0.84 |
| GAACACAGCGGCUGCCAGUCUCCUGGUCCCGAGAGGAGGUGGGGCCUGGCCCUGGCUCCCUCCAACCAGCUGCUCCUGGGACACAGGUGCUCCUGCUUCGGCUCUGUUUC | 0.317 |
| ACCAUGGUGGCAUGGACCACCCUCAUCCAUGCAACUCCAGGCCCCAUGGGAACGGAUGUGGAAGGAAGAACUGUCACCCUCUUAAGGCCCAGGGUCGGAGCCCAGGGCCU | 0.414 |
| GUUCUCAAACUCUCUCACUAUUAUCUGUGGUUGCCGUUUCUUCCCAAGGCCAGCCUGGACGAAUUUGGGGUUGCUCUAUCCUGAGAGUUGUAACCUCAACUUCCAAAGUU | 0.635 |
| CAGAGAGCAAACAGUGAGAUAACAGGAGCUGUCUGUCGCAAAGCUUGCUUUCCACUGACACUCAGUUCACCCUGCCACUCUGCAAGGUUUGCCUUGGGCAGCUGUGGGGU | 0.19 |
| CAAGCCUCCCUCCCUGGGCUACAGGGCCUCCGGUCCUGCUCCCAUACCCAGGUUUGGUUCCUCUAGGGGGGGGCCCCCACUGUGGAGAUAAAAGUCGGGGAUGGAAUGGG | 0.574 |
| UCUGCUGAGCACAGGGCUGUUGUCAUUUGUAAACGCAAACACUGUGGAGGUACUUCUCGCCAUCAGCUUCCUUCUUUACAAAACCAUCAUUUCAACAUGAAAAUUAUGUC | 0.344 |
| GACACUGCUCCACUCAGUAUUCAUCCUGUUGACGCACACAGGUGAGCACUUUCCUAACUACUGCAGACAGACUGACUGCCAAGGCACACUGUGCUCACGACUGGAAAGUA | 0.319 |
| CAAGAGCUGUCACAGACAAGUGGCAGAAUACAGGCACCAUGAGCUCAGGUUCUGACAAGGUGCAAAGCGUGGGGAGGCUCUGAGGAAUAUGAAGAGUGGGAAGGCGGCCU | 0.364 |
| CUUUAACAGCUUACACUGAUUGGUGUUUUAUCUCCUGUGAUCCUUUGAUGGCUUUUUUUGCCUACCAUUUCACAGAGGUUUAGACAGCAGUAGUAGCUCCCUAGGAGAGU | 0.311 |
| CCCUCGGGCUACCCAGCAAGAGGAUUCUGCAUCAAGGAACUGGACGAGCCGCUACCCAAACUGCCACCAUCUUUACUCUUUACAAAAUGGACCCAUCGAGAAUGUUGAAA | 3.68 |
| AUGUUACUGAGUCAGGAGAUUCAUAAGUAACUAAGAAACUGGCAGGUCAUACUGGGCAACAGUGUUCUUCUUUAGAACACUGUAGGCUCUUCUCACUGGAAGAGCAGAGG | 0.232 |

Block 2 — technique: protein binding microarray; molecule type: double-stranded DNA, one strand shown; medium: in vitro; concentration: not given; baseline: not given; direction: higher = stronger binding
Target: Histone acetyltransferase KAT6A, winged helix 2, GST fusion (KAT6A, Homo sapiens, UniProt Q92794, residues 85-181)
Notes: 8-mer, flanks averaged, mean of 2 arrays, mostly near background
Target sequence (chain): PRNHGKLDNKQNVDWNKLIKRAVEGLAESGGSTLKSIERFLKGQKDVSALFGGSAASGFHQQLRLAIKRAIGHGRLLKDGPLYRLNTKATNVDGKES
| Sequence | E-score |
| --- | --- |
| CAGCAGAA | 0.0091 |
| CCTGCCTA | 0.136 |
| AGTCTGCC | -0.0482 |
| CGTGCCTC | 0.0827 |
| AAGGCTCT | -0.163 |
| AACAGCTT | -0.0156 |
| CACGCAAC | 0.122 |
| ACCATTTC | -0.0218 |
| ATTTGACC | 0.0129 |
| ACAGGACG | -0.192 |
| AAAGACCC | 0.188 |
| TAGTGGGA | -0.037 |
| AGGGTACT | -0.122 |
| ATGGCGCG | 0.0554 |
| AGATTCAC | -0.014 |
| TCGAACGA | -0.158 |
| TCCAAGAA | 0.139 |
| TGGGCCCA | 0.00276 |
| CATACCTA | -0.123 |
| CCGCTCCC | 0.0381 |
| ACGTATGG | -0.198 |
| ATAAGTGC | -0.142 |
| ATTGTACC | -0.00645 |
| CTTGCAAC | 0.0161 |
| ATCCAGGA | 0.0124 |

Block 3 — target: CCNF, cyclin fold, Cln2 fusion (human); technique: yeast growth competition, sequencing; medium: yeast; notes: strong parent motif; baseline: not given; direction: higher = stronger binding
Starting sequence: NPAT docking peptide (human); PCHRRVLCFDSTT; partner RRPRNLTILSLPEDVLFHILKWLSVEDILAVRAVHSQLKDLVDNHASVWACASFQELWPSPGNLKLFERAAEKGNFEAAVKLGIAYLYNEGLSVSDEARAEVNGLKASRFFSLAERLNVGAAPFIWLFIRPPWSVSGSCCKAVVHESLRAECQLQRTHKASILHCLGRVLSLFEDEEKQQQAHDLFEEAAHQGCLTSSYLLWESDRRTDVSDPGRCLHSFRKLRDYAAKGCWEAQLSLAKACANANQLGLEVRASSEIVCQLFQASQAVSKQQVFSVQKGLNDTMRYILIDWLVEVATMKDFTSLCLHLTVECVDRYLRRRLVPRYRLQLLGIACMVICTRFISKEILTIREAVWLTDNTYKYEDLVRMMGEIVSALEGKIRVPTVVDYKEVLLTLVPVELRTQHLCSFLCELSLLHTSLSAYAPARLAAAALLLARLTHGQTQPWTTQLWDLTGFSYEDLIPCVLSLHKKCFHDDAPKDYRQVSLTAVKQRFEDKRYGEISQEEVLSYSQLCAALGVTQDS
| Change | normalised enrichment score |
| --- | --- |
| PCHRRVACFDSTT [L7A] | 0.000828 |
| PCHRRVLAFDSTT [C8A] | 1.83 |
| PCHRKVLCFDSTT [R5K] | 2.47 |
| PAHRRVLCFDSTT [C2A] | 4.76 |
| PCHRAVLCFDSTT [R5A] | 0.257 |
| PCARRVLCFDSTT [H3A] | 8.53 |
| PCHRRVLCFASTT [D10A] | 2.68 |
| PCHRAVACFDSTT [R5A L7A] | 0.471 |

Block 4 — technique: DHFR PCA, deep sequencing; medium: yeast; together with: (+)-ABA 58 µM; baseline: wild-type fitted maximum; direction: higher = stronger binding
Target: ABI1, truncated, D143A, DHFR fusion (Arabidopsis thaliana)
Notes: methotrexate growth selection, single substitutions
Starting sequence: PYL1, truncated, DHFR fusion (Arabidopsis thaliana); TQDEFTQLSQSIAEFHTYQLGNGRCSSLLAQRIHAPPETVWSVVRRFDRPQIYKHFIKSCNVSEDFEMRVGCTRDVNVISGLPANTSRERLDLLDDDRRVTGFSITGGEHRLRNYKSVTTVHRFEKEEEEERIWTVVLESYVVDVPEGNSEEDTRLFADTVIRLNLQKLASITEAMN
| Change | relative binding score |
| --- | --- |
| I172G | 17.9% |
| R113V | 90.7% |
| R113T | 87.3% |
| S63T | 82.7% |
| D97N | 92.7% |
| E67V | 88.2% |
| K126I | 96.2% |
| F103M | 61.7% |
| I172P | -0.438% |
| H55E | 82% |
| E147N | 76.6% |
| R113G | 69.8% |
| L138C | 63.1% |
| D96I | 24.4% |

Block 5 — technique: protein-binding microarray; molecule type: double-stranded DNA, one strand shown; medium: in vitro; concentration: 2200 nM top; notes: 60-bp whole probe; together with: salmon DNA 0.4 mg/ml; baseline: random background probes; direction: higher = stronger binding; constant ends, left off below: GCCTAGCAC … GTCTTGATTCGCTTGACGCTGCTG
Target: Interferon regulatory factor 7, full length, phosphomimetic (IRF7, Homo sapiens, UniProt Q92985, residues 1-503, S471D/S472D/S475D/S476D/S477D/S483D/S484D/S487D)
Sequence of UniProt Q92985 (whole entry, unmodified, looked up): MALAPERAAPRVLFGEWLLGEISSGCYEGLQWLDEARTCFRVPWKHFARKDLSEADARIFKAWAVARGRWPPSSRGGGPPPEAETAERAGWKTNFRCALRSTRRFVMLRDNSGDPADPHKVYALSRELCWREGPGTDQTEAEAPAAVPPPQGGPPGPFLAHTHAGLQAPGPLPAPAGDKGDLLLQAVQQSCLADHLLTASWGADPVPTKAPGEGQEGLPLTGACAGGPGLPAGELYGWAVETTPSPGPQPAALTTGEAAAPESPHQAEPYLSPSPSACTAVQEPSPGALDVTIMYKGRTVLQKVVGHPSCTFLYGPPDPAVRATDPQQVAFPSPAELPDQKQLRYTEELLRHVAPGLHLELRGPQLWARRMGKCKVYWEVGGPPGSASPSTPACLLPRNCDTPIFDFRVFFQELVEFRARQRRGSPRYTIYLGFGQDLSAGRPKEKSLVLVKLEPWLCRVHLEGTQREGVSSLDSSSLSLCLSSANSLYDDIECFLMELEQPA
| Sequence | fitted relative affinity [z-score] |
| --- | --- |
| GACGGTTTCGATTATCGGGACGTGCTA | 5.34 |
| TTAGGTTTCGGTTTCGATTAGTGCTAG | 15.3 |
| TATATTATATATTTATGTATGTGCTAG | 0.67 |
| TCATCTTCATGTTTTTTACTGTGCTAG | 1.73 |
| TACGGTTTCGACTTTCGGGACGTGCTA | 8.84 |
| TTAGGTTTCGCTCTCGGTTAGTGCTAG | 5.52 |
| TTAGGTATCCTTATTCTTTAGTGCTAG | 0.742 |
| GACTGACTGGGTCTCGGGACGTGCTAG | -0.55 |
| TCAAAACTCGTATGTGACACTGTGCTA | 0.107 |
| TTAGGTTTCGGAATCGGTTAGTGCTAG | 6.3 |
| ATAGGTTTCGGACTGGGTTAGTGCTAG | 3.66 |
| GATGGTATCCTTTTCCTGACGTGCTAG | 1.46 |
| GAAGCCCTCCCTGTGGGGGGGTGCTAG | -0.413 |
| GACGATATCATACTGGAGACGTGCTAG | 0.0189 |
| GACGATTTCAGTCTCAAGACGTGCTAG | 0.564 |
| TTAGGTCTCGGACTGTGTTAGTGCTAG | 0.188 |
| TTAGGTATCGACACTGGGTAAGTGCTA | -0.266 |
| TCACGTCTGATTTTGCTACTGTGCTAG | 1.4 |
| TTAGGTATCAGTTTCGATTAGTGCTAG | 5.85 |
| GACGGACTGGACTTACGGGACGTGCTA | -0.89 |
| GACGGTTACCTTTTCCTGACGTGCTAG | 1.49 |
| TTAGGACTGCTTCTCCTATAGTGCTAG | 0.882 |
| CTTTGACTCTTTCTGTCAGTGTGCTAG | 1.29 |
| GACGGTATCGGACTGGGGCCGTGCTAG | -0.477 |
| TCAGCTTCCTCTTTACTACTGTGCTAG | 2.61 |

Excerpt of the above (block 2):
| Sequence | E-score |
| --- | --- |
| AGTCTGCC | -0.0482 |
| CGTGCCTC | 0.0827 |
| AAGGCTCT | -0.163 |
| AACAGCTT | -0.0156 |
| CACGCAAC | 0.122 |
| ACCATTTC | -0.0218 |
| ATTTGACC | 0.0129 |
| ACAGGACG | -0.192 |
| AAAGACCC | 0.188 |
| TAGTGGGA | -0.037 |
| AGGGTACT | -0.122 |
| ATGGCGCG | 0.0554 |
| AGATTCAC | -0.014 |
